Assay results gathered from unrelated publications.
Compare with care: the assays were run in different laboratories. Several values in a cell are separate wells, animals, samples, runs or records. Numbers after ± are the reported error.
OVA5: Lysine--tRNA ligase, chloroplastic/mitochondrial (OVA5, Arabidopsis thaliana, UniProt Q9LJE2)
UniProt Q9LJE2, sequence (whole entry, looked up): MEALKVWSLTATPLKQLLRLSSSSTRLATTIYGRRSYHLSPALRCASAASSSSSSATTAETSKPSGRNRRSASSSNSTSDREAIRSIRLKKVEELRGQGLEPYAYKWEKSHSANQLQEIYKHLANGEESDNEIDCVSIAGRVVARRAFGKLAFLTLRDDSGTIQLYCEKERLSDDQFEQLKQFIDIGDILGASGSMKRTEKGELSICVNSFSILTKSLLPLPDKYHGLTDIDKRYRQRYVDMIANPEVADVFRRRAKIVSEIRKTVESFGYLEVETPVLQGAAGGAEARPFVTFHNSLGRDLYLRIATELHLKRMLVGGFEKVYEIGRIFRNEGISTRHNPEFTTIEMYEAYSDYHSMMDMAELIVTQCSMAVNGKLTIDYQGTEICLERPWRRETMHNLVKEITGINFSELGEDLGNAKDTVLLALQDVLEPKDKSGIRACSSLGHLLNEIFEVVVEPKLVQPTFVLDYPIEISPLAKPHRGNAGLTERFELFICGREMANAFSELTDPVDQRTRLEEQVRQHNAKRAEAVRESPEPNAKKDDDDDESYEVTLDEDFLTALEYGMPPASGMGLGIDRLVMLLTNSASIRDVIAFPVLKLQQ
CGAS: Cyclic GMP-AMP synthase (CGAS, Homo sapiens, UniProt Q8N884)
UniProt Q8N884, sequence (whole entry, looked up): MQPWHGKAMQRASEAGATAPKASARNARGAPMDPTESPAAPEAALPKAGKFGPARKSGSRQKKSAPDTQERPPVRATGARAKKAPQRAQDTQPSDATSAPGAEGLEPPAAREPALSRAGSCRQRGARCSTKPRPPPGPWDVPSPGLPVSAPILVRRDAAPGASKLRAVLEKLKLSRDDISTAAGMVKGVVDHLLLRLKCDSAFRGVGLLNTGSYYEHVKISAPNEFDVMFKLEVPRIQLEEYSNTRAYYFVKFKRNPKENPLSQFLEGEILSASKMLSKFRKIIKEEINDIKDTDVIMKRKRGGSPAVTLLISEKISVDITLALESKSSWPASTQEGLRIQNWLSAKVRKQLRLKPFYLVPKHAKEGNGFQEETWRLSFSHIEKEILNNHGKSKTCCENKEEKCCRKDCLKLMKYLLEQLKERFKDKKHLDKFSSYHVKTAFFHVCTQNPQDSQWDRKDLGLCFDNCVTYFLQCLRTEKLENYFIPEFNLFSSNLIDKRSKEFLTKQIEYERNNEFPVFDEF
PRKACA: cAMP-dependent protein kinase catalytic subunit alpha (PRKACA, Homo sapiens, UniProt P17612)
XDH: Xanthine dehydrogenase/oxidase (XDH, Homo sapiens, UniProt P47989)
UniProt P47989, sequence (whole entry, looked up): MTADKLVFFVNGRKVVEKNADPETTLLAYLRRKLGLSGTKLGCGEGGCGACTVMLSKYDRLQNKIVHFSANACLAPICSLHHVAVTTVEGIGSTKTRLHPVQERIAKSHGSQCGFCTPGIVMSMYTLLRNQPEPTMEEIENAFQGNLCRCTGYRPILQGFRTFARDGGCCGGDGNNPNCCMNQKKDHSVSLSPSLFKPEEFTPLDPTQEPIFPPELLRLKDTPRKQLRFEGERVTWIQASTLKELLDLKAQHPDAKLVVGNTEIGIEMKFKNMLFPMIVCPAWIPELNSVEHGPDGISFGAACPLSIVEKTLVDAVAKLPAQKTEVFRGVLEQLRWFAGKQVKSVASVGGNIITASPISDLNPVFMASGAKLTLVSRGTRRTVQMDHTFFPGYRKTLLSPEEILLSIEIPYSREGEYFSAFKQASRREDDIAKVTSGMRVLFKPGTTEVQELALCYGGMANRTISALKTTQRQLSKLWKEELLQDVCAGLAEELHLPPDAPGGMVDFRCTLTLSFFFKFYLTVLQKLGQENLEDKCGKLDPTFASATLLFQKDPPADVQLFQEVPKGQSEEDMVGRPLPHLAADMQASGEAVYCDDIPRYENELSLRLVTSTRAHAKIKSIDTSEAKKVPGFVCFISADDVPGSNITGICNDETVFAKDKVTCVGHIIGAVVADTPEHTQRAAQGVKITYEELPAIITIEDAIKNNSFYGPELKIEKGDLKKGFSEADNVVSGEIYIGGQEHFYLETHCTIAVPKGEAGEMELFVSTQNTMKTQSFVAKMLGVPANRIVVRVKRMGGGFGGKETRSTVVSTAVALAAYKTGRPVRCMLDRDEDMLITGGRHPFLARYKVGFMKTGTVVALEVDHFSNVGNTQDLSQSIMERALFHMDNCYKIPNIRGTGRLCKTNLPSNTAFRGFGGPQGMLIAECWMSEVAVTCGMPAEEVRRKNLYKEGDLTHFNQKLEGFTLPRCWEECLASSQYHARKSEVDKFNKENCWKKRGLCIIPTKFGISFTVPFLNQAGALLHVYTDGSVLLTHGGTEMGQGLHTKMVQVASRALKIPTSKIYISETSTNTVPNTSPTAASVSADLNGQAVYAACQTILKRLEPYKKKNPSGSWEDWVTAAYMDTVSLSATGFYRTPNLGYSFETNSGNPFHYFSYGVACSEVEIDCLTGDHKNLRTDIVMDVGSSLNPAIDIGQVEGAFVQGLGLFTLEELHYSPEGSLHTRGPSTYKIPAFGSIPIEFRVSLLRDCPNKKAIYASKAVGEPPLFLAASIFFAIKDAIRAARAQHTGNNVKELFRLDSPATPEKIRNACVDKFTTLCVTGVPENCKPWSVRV
IL1RL1 with IL-33: Interleukin-1 receptor-like 1, with IL-33 (IL1RL1, Homo sapiens, UniProt Q01638)
UniProt Q01638, sequence (whole entry, looked up): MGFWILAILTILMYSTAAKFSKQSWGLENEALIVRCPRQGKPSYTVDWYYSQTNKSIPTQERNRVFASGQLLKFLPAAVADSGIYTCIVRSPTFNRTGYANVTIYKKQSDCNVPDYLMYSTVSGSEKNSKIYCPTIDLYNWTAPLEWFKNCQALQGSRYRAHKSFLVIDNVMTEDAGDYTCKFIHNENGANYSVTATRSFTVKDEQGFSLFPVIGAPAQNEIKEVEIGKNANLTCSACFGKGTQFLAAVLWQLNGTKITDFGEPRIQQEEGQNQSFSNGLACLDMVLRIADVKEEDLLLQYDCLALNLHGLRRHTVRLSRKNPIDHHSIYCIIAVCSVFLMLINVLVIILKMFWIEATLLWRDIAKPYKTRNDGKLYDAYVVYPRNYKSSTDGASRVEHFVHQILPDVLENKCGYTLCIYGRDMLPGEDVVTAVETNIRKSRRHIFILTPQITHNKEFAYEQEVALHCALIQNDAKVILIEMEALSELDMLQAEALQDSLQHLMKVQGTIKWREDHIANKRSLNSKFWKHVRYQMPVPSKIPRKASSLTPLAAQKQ
NTRK1: High affinity nerve growth factor receptor (NTRK1, Homo sapiens, UniProt P04629)
UniProt P04629, sequence (whole entry, looked up): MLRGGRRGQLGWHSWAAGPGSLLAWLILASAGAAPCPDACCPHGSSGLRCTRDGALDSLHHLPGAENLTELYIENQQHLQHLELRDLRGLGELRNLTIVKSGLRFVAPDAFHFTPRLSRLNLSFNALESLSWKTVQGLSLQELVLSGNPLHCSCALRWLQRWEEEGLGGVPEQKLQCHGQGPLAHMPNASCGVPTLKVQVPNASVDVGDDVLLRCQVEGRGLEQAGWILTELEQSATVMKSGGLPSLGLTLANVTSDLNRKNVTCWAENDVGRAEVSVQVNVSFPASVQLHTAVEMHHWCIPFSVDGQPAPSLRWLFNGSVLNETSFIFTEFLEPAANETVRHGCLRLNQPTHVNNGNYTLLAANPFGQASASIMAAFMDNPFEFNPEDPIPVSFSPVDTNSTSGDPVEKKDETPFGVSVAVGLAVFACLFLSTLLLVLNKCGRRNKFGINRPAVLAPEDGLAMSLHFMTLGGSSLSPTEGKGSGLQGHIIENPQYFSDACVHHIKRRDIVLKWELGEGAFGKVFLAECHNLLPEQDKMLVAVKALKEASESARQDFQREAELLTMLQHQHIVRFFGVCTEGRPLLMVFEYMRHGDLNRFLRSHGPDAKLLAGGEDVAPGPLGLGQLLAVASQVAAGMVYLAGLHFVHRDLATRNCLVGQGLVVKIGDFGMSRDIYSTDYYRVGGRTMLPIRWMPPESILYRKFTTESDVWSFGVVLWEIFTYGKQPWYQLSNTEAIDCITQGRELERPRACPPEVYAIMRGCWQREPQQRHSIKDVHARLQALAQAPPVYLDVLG
SMARCA4 bromodomain: SWI/SNF-related matrix-associated actin-dependent regulator of chromatin subfamily A member 4, bromodomain (SMARCA4, Homo sapiens, UniProt P51532)
UniProt Q8IWT6, sequence (whole entry, unmodified, looked up): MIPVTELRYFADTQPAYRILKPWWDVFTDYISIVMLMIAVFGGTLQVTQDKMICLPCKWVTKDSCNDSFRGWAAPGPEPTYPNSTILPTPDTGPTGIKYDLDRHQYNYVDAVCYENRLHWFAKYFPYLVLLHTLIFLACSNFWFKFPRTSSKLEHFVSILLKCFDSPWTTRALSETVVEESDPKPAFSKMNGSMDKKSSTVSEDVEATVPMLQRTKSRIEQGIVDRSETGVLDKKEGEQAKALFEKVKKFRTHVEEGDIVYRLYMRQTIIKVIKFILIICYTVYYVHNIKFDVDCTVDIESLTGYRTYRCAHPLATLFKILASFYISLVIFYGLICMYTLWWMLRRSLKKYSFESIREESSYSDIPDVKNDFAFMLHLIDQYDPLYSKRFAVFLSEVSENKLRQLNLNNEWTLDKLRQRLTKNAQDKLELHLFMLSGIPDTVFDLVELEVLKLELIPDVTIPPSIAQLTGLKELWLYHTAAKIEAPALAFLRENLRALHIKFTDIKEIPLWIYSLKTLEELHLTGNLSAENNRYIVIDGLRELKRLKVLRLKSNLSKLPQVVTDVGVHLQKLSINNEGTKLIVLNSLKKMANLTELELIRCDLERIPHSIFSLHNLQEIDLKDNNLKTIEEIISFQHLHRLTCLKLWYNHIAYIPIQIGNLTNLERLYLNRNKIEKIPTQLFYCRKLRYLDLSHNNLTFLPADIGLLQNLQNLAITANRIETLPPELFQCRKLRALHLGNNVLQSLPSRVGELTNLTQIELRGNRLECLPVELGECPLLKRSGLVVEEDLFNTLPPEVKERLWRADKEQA
UniProt Q9UQB9, sequence (whole entry, looked up): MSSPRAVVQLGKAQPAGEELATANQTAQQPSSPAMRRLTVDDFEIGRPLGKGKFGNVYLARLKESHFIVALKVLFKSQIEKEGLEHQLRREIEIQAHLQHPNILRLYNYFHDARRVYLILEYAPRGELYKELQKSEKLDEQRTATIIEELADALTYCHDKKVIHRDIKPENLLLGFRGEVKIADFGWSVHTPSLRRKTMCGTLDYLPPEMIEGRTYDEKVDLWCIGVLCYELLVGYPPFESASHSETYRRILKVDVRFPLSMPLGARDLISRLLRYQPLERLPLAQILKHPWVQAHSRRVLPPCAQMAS

| Structure (SMILES) | tested on | assay | system | setting | endpoint | result |
| --- | --- | --- | --- | --- | --- | --- |
| Cc1cnc(-c2ccc(-c3ccc(NC(=O)Nc4c(F)cc(F)cc4F)cc3F)c3c2C(=O)NC3)[nH]1 | Aurora kinase C (AURKC, Homo sapiens, UniProt Q9UQB9) | kinase activity, inhibitor, cell-free | – | 90 min, 28 °C, together with: ATP | IC50 | 0.00295 µM |
| C=C(Cl)c1c(N)nsc1C(=O)NCC1CCCCC1 | OVA5 | enzyme activity, inhibitor | – | – | IC50 | 79.4 µM |
| Cc1nn(-c2nc3ccccc3[nH]2)c(O)c1C(c1ccccc1C(=O)O)c1c(C)nn(-c2nc3ccccc3[nH]2)c1O | CGAS | enzyme activity, inhibitor, pyrophosphatase-coupled | – | human cGAS | IC50 | 4.13 µM |
| Cc1cc(N2C=C(c3ccnc4[nH]ccc34)SCC2)nc(C(C)(C)C)n1 | PRKACA | – | – | – | IC50 | > 10 µM |
| Cc1cc([C@@H](C)Nc2ccccc2C(=O)O)c2nc(N3CCCCC3)cc(=O)n2c1 | Phosphatidylinositol 4,5-bisphosphate 3-kinase catalytic subunit beta isoform, with p85 alpha (PIK3CB, Homo sapiens, UniProt P42338) | ADP-Glo | – | together with: ATP 10 µM | IC50 | 5.52 µM |
| Cc1cccc(-n2ncc(Cl)c(Cl)c2=O)c1 | XDH | enzyme activity, inhibitor | – | – | IC50 | 229 ± 250 µM |
| CN1CCC(CNc2ccc3ncc(-c4cccc(OC(F)(F)F)c4)n3n2)CC1 | GABA-A receptor; alpha-1/beta-2/gamma-2 (Homo sapiens, UniProt P14867+P18507+P47870) | membrane potential, blocker | – | top concentration 10 µM | IC50 | 6 µM |
| OC[C@H]1NC[C@H](O)[C@@H](O)[C@@H]1O | ATH1 (Pleurotus sp., UniProt A0A8D5F0R5) | enzyme activity, inhibitor, Somogyi-Nelson reducing sugar | – | pH 5.0, preincubation 30 min at 37 °C, together with: trehalose 20 mM | IC50 | 16 µM |
| CC1(C)CCC(CNC(=O)c2snc(N)c2Cl)CC1 | OVA5 | enzyme activity, inhibitor | – | – | IC50 | 79.4 µM |
| CC1Cc2ccccc2N1NC(=O)c1ccc(Cl)c(S(N)(=O)=O)c1 (stereo not shown) | XDH | enzyme activity, inhibitor | – | – | IC50 | > 75 µM |
| Cn1nccc1C1=CN(c2ncnc3[nH]ccc23)CCS1 | PRKACA | – | – | – | IC50 | > 10 µM |
| Nc1nsc(C(=O)NCC2CCCCC2)c1F | OVA5 | enzyme activity, inhibitor | – | – | IC50 | 10 µM |
| O=C(NCCN1CCCC1=O)c1ccc([C@H]2[C@@H](F)[C@@H](F)C[C@@H](F)[C@H]2F)cc1 | – | liver microsome stability | human liver microsomes | 1 µM, without NADPH | hepatic clearance | 3.9 mL/min/kg |
| N=C1N[C@H](CO)[C@H](O)[C@H](O)[C@H]1O | sweet almond β-glucosidase | enzyme activity, inhibitor | – | pH 5.00, together with: 2-chloro-4-nitrophenyl β-D-glucopyranoside | IC50 | > 1000 µM |
| CN(C)c1cccc(C2CCCN2Cc2ccc(-c3ccccc3[N+](=O)[O-])o2)c1 (stereo not shown) | IL1RL1 with IL-33 | binding, AlphaLISA | – | – | IC50 | 5 to 7 µM and < 10 µM |
| C[C@H]1Oc2cc(cnc2N)-c2c(nn(C)c2C#N)CN(C)C(=O)c2ccc(F)cc21 | NTRK1 | enzyme activity, inhibitor | – | together with: 1 mM ATP | IC50 | 0.126 µM |
| COc1c(N)nsc1C(=O)NCC1CCCCC1 | OVA5 | enzyme activity, inhibitor | – | – | IC50 | 50.1 µM |
| O=c1cc(-c2ccc(O)c(O)c2)oc2cc(O[C@@H]3O[C@H](CO)[C@@H](O)[C@H](O)[C@H]3O)cc(O)c12 | L-lactate dehydrogenase B chain (LDHB, Homo sapiens, UniProt P07195) | enzyme activity, inhibitor | purified enzyme | – | IC50 | 110 ± 19.9 µM |
| CO[C@H]1C(NCc2ccc(C)cc2)=N[C@H](CO)[C@H](O)[C@@H]1O | sweet almond β-glucosidase | enzyme activity, inhibitor | – | pH 5.00, together with: 2-chloro-4-nitrophenyl β-D-glucopyranoside | IC50 | > 5000 µM |
| Cc1noc(C)c1C1=CN(c2ncnc3[nH]cc(C)c23)CCS1 | PRKACA | – | – | – | IC50 | > 10 µM |
| Nc1nsc(C(=O)NCc2ccc(F)cc2F)c1Cl | OVA5 | enzyme activity, inhibitor | – | – | IC50 | 39.8 µM |
| Cc1nn(-c2nc3c(F)cc(F)cc3s2)c(O)c1C(c1ccccc1C(F)(F)F)c1c(C)nn(-c2nc3c(F)cc(F)cc3s2)c1O | CGAS | enzyme activity, pyrophosphatase-coupled | – | mean of 3 experiments | IC50 | 17.6 µM |
| Cc1ncc(C2=CN(c3ncnc4[nH]cc(C)c34)CCS2)o1 | PRKACA | – | – | – | IC50 | > 10 µM |

| Structure (SMILES) | tested on | assay | system | setting | endpoint | result |
| --- | --- | --- | --- | --- | --- | --- |
| Nc1cc(C(=O)NCc2ccc(F)cc2F)sn1 | OVA5 | enzyme activity, inhibitor | – | – | IC50 | 63.1 µM |
| Cc1cnc(-c2ccc(-c3ccc(NC(=O)Nc4c(F)cc(F)cc4F)cc3F)c3c2C(=O)NC3)[nH]1 | NTRK1 | enzyme activity, inhibitor, mobility shift | – | together with: ATP 1 mM | IC50 | 0.0034 µM |
| CCc1cc2c(cc1N1CCC(N3CCOCC3)CC1)C(C)(C)c1[nH]c3cc(C#N)ccc3c1C2=O | NTRK1 | enzyme activity, inhibitor | – | together with: 1 mM ATP | IC50 | 0.371 µM |
| COc1c([C@H]2[C@H](C(=O)Nc3ccnc(C(N)=O)c3)O[C@@](C)(C(F)(F)F)[C@H]2C)ccc(F)c1F | Equilibrative nucleoside transporter 1 (Cavia porcellus, UniProt H0V4R7) | binding | – | – | IC50 | 8.8 µM |
| O=C(O)[C@H]1/C(=C/CO)O[C@@H]2CC(=O)N21 | beta-lactamase RAD-1 (Riemerella anatipestifer) | enzyme activity, inhibitor, spectrophotometric reporter substrate hydrolysis | – | – | IC50 | 34 µM |
| Nc1nc2nc[nH]c2c(=S)[nH]1 | CUGBP Elav-like family member 1 (CELF1, Homo sapiens, UniProt Q92879, del215-384) | CELF1-RNA binding, inhibitor, fluorescence polarization | – | CELF1 20 nM, preincubation 30 min, together with: RNA 10 nM | IC50 | 21.5 µM |
| N[C@@H]1CCN(C(=O)C2=CN(c3ncnc4[nH]ccc34)CCS2)C1 | PRKACA | – | – | – | IC50 | < 0.1 µM |
| COc1ccc(/C=C/C(=O)Nc2ccccc2C(=O)O)cc1OC | XDH | enzyme activity, inhibitor | – | – | IC50 | > 75 µM |
| O=C(c1ccc(C2CCCCC2)cc1)N1CC(O)C1 | – | liver microsome stability | human liver microsomes | 1 µM, without NADPH | hepatic clearance | 3.9 mL/min/kg |
| Cc1ncsc1-c1ccc(CNC(=O)[C@@H]2C[C@H](O)CN2C(=O)[C@@H](NC(=O)C2(F)CC2)C(C)(C)C)c(OCCc2ccc(CN3CCN(c4cc(-c5ccccc5O)nnc4N)CC3)cc2)c1 | SMARCA4 bromodomain | binding, TR-FRET competition | – | binary without VCB | IC50 | 1.2 µM |
| O=C(Nc1cccc2c(=O)cc(-c3nnn[nH]3)oc12)c1ccc(OCCCCc2ccccc2)cc1 | LRRC8A/LRRC8C (Homo sapiens, UniProt Q8IWT6+Q8TDW0, M48D/T48D) | whole-cell patch clamp | HCT116 LRRC8-/- expressing heteromers | +100 mV | IC50 | no effect |
| CC(=O)NCCNC(=O)C1=CN(c2ncnc3[nH]cnc23)CCS1 | PRKACA | – | – | – | IC50 | > 10 µM |
| CC[C@@H]1[C@H](F)C(=O)N[C@@H]1COc1nccc2cc(C(N)=O)c(OC)cc12 | Serine/threonine-protein kinase STK11 (STK11, Homo sapiens, UniProt Q15831) | ATP-site probe binding, ActivX profiling | THP-1 cell lysate | Lys2 site | IC50 | 0.79 µM |
| COCC#Cc1c(N)nsc1C(=O)NCC1CCCCC1 | OVA5 | enzyme activity, inhibitor | – | – | IC50 | 79.4 µM |
| CC(=O)c1n[nH]c2ccc(-c3cnc4ccc(N(C)C5CCOCC5)nn34)cc12 | Triggering receptor expressed on myeloid cells 1, dimer (TREM1, Homo sapiens, UniProt Q9NP99) | split luciferase reporter | human cells | 6 h, treatment 48 h after induction, together with: doxycycline induction | IC50 | 3.4 ± 1.6 µM |
| CC1CCC(CNC(=O)c2snc(N)c2Cl)CC1 (stereo not shown) | OVA5 | enzyme activity, inhibitor | – | – | IC50 | 6.31 µM |
| CN1CCN(c2ccc(Nc3ncc4cc(C#N)c(=O)n(C5CCCC5)c4n3)cc2)CC1 | Serine/threonine-protein kinase 26 (STK26, Homo sapiens, UniProt Q9P289) | – | – | – | IC50 | 9.84 µM |
| Cc1ncsc1-c1ccc(CNC(=O)[C@@H]2C[C@@H](O)CN2C(=O)[C@@H](NC(=O)C2(F)CC2)C(C)(C)C)c(OCCOc2ccc(CN3CCN(c4cc(-c5ccccc5O)nnc4N)CC3)cc2)c1 | SMARCA4 bromodomain | binding, TR-FRET competition | – | binary without VCB | IC50 | 0.56 µM |
| Cc1noc(C)c1C(=O)N[C@@H](CNC(=O)CNC(=O)c1cccc(NC(=N)N)c1)C(=O)O | Integrin alpha-5/beta-1 (Homo sapiens, UniProt P05556+P08648) | cell adhesion, inhibitor | SW480 | together with: fibronectin 0.3 µg/mL | IC50 | 0.1 µM |
| COc1cc2nccc(Oc3ccc(NC(=O)c4cc5c(n(-c6ccccc6)c4=O)CCCC5=O)nc3)c2cc1OC | NTRK1 | cell viability, CellTiter-Glo | Ba/F3 expressing recombinant kinase | 48 h | IC50 | 0.0357 µM |
| C1=C(c2cccnc2)SCCN1c1ncnc2[nH]cnc12 | PRKACA | – | – | – | IC50 | > 10 µM |
| O=[N+]([O-])c1ccccc1-c1ccc(CN2CCCC2c2cccc(N3CCCCC3)c2)o1 (stereo not shown) | IL1RL1 with IL-33 | binding, AlphaLISA | – | – | IC50 | 5 to 7 µM |
| CO[C@H]1O[C@H](COS(=O)(=O)O)[C@@H](O[C@@H]2O[C@@H](C(=O)O)[C@@H](O[C@H]3O[C@H](COS(=O)(=O)O)[C@@H](O[C@@H]4O[C@H](C(=O)O)[C@@H](O[C@H]5O[C@H](COS(=O)(=O)O)[C@@H](O)[C@H](O)[C@H]5NS(=O)(=O)O)[C@H](O)[C@H]4O)[C@H](OS(=O)(=O)O)[C@H]3NS(=O)(=O)O)[C@H](O)[C@H]2OS(=O)(=O)O)[C@H](O)[C@H]1NS(=O)(=O)O | Beta-2-glycoprotein 1, with anti-β2GPI antibody (APOH, Homo sapiens, UniProt P02749) | binding to cardiolipin, ELISA | – | together with: β2GPI 4 nM | IC50 | 670 µM |
